Measured values of several laboratories.
Parts stem from different laboratories: compare values within a part only. Positions count from the first letter of the parent shown.

Study 1
Target: Prothrombin, mature alpha-thrombin (F2, Homo sapiens, UniProt P00734)
Method: aptamer microarray, sandwich
Form: DNA with 2'F-ANA
Medium: in vitro
Concentration: 200 nM
Setting: whole 15-mer aptamer, many near background
Together with: Cy3 exosite-II aptamer, 400 nM
Reading: higher = stronger binding
Endpoint: mean fluorescence intensity
Sequence: GGTTGGTGTGGTTGG
2'F-ANA at 4 8 9 11 13 14 15: 74.4 a.u.
2'F-ANA at 3 5 7 9 11 13 14: 107 a.u.
2'F-ANA at 3 6 7 8 9 10 11 14 15: 346 a.u.
2'F-ANA at 1 3 4 7 8 9 10 11 12: 91.2 a.u.
2'F-ANA at 2 5 12 13 14 15: 47.9 a.u.
2'F-ANA at 2 3 10 12 15: 486 a.u.
2'F-ANA at 1 2 5 6 7 8 12 14 15: 55.4 a.u.
2'F-ANA at 2 3 10 11 13: 368 a.u.
2'F-ANA at 2 3 5 6 8 10 14: 55.9 a.u.
2'F-ANA at 4 5 6 11 13 15: 79.3 a.u.
2'F-ANA at 4 5 6 7 8 9 11 13 14: 48.4 a.u.
2'F-ANA at 2 6 7 8 10 13 14: 85.6 a.u.
2'F-ANA at 1 6 9 12 13: 208 a.u.
2'F-ANA at 1 2 4 5 6 8 9 10 14 15: 67 a.u.
2'F-ANA at 1 5 9: 58.9 a.u.
2'F-ANA at 1 2 5 6 8 12 14: 56.9 a.u.
2'F-ANA at 3 6 7 8 9 10 13 15: 470 a.u.
2'F-ANA at 2 3 5 6 7 8 10 15: 50.6 a.u.
2'F-ANA at 1 4 7 13 14: 52.3 a.u.
2'F-ANA at 1 2 4 5 6 7 8 12 13 14 15: 107 a.u.
2'F-ANA at 2 4 7 10 12 13 14: 64.4 a.u.
2'F-ANA at 4 5 7 8 10 12: 72.5 a.u.
2'F-ANA at 1 2 4 5 8 12 13 14: 44.1 a.u.
2'F-ANA at 2 3 5 7 10 12 14 15: 52.8 a.u.

Study 2
Target: CRIPT, C-terminal peptide
Method: DHFR complementation, deep sequencing
Medium: yeast
Setting: single substitutions, model-inferred values
Baseline: wild type
Reading: higher = weaker binding
Endpoint: binding free energy change
Starting sequence: ERBIN, PDZ domain 1 (human); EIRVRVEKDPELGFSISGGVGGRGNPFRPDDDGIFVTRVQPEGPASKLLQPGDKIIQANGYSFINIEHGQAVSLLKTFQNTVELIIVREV; partner TKNYKQTSV
L84C: 0.289 kcal/mol
I56Q: 0.137 kcal/mol
S62N: 0.148 kcal/mol
D31E: 0.216 kcal/mol
P29V: 0.112 kcal/mol
N65M: 0.12 kcal/mol
N25T: 0.732 kcal/mol
L84F: -0.496 kcal/mol
R88E: 1.12 kcal/mol
V20Y: -0.104 kcal/mol
F14T: 0.501 kcal/mol
V72W: 2.14 kcal/mol
A58D: 0.317 kcal/mol
D9Q: -0.0565 kcal/mol
A71S: 0.263 kcal/mol
K8N: 1.08 kcal/mol
D31V: 0.813 kcal/mol
V87C: 0.0694 kcal/mol
Q40G: 0.366 kcal/mol
L84E: 1 kcal/mol
E11I: -0.452 kcal/mol
D30T: 0.216 kcal/mol
R5T: 0.0605 kcal/mol
H68K: 1.5 kcal/mol
R3E: 0.0548 kcal/mol

Study 3
Target: Histone acetyltransferase KAT6A, both winged helices, GST fusion (KAT6A, Homo sapiens, UniProt Q92794, residues 1-181)
Method: protein binding microarray
Form: double-stranded DNA, one strand shown
Medium: in vitro
Concentration: not given
Setting: 8-mer, flanks averaged, mean of 2 arrays, mostly near background
Baseline: not given
Reading: higher = stronger binding
Endpoint: E-score
Target sequence (chain): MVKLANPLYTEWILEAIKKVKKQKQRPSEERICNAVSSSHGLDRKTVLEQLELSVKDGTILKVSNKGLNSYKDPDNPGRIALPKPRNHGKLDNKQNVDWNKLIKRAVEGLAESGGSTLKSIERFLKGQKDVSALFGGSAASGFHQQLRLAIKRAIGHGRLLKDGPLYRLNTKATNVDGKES
ATGTCATA: 0.0514
AGAACGCA: -0.0759
AAGGCCTA: -0.145
CTCGCGGC: 0.36
GCTGTGCA: -0.0225
ACGGGGCA: 0.171
ACCTTGTG: -0.081
CCCGCTAG: 0.262
ACCTGATC: -0.226
CGTTCCCA: -0.0327
AAGCCCAC: -0.08
ATAGCTCA: 0.0197
GACATAAC: -0.00816
AACATCTC: -0.00613
AATAGGCT: -0.0739
CAACTTTC: -0.0398
CGGAACTA: 0.173
AGATGAGG: -0.288
GGATGATA: -0.13

Study 4
Target: BATF, bZIP domain (human)
Method: DHFR protein complementation
Medium: yeast
Setting: single substitutions, most at no-binding floor
Baseline: wild-type JUN-FOS pair
Reading: higher = stronger binding
Endpoint: binding fitness
Starting sequence: JUN, bZIP domain (human); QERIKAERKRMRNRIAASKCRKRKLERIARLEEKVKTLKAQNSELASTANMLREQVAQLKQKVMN; partner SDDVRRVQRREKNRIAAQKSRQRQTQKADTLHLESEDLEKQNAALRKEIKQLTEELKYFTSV
K34H: 0.053 natural log
T37R: 0.0475 natural log
V56Q: -0.965 natural log
E32T: -0.127 natural log
Q41M: -0.0577 natural log
M51H: 0.0142 natural log
A29S: -0.0568 natural log
T48W: -0.171 natural log
N42S: -0.456 natural log
E44W: -0.179 natural log
E44M: -0.0322 natural log
K34S: -0.0715 natural log
S47R: 0.0572 natural log
Q41I: 0.0335 natural log
T37K: 0.0494 natural log
E44I: -0.11 natural log
L38V: -0.649 natural log
R53V: -0.555 natural log
R53F: -0.691 natural log

Study 5
Target: CCNB1, cyclin fold, Cln2 fusion (human)
Method: yeast growth competition, sequencing
Medium: yeast
Setting: strong parent motif
Baseline: not given
Reading: higher = stronger binding
Endpoint: normalised enrichment score
Starting sequence: E2F1 docking peptide (human); PPVKRRLDFETDH; partner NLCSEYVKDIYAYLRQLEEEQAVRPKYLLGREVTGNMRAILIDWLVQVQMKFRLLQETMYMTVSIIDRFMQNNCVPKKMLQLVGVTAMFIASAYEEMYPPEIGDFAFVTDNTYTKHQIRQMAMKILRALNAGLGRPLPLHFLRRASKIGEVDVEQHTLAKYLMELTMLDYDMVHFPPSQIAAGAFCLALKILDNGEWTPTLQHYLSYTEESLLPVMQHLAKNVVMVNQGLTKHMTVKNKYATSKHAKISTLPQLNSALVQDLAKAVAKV
PYVKRRLDFETDH [P2Y]: 3.95
PPVKRRLDYETDH [F9Y]: 3
PPVYRRLDFETDH [K4Y]: 3.86
PPVKRRLDHETDH [F9H]: 0.185
PAVKRRLDFETDH [P2A]: 4.85
PPVKRRLDTETDH [F9T]: -0.0259
PPVKRRLDGETDH [F9G]: 0.165
PPHKRRLDFETDH [V3H]: 0.712
PPVKRRLAFETDH [D8A]: 4
PPVKCRLDFETDH [R5C]: 3.2
PPFKRRLDFETDH [V3F]: 1.45
PSVKRRLDFETDH [P2S]: 5.37
PMVKRRLDFETDH [P2M]: 4.54
PPVKRGLDFETDH [R6G]: 1.22
PPVKRRFDFETDH [L7F]: 0.286
PPVKRRLDFETEH [D12E]: 5.52
PPVKFRLDFETDH [R5F]: 0.881
PPVLRRLDFETDH [K4L]: 2.3
PPMKRRLDFETDH [V3M]: 1.76
PPVDRRLDFETDH [K4D]: 3.26
PPVKRPLDFETDH [R6P]: 0.554
PPGKRRLDFETDH [V3G]: 0.465
PQVKRRLDFETDH [P2Q]: 5.17
PPVKRRLDEETDH [F9E]: 0.799
PPVKRRLDSETDH [F9S]: 0.071

Study 6
Target: ABI1, truncated, D143A, DHFR fusion (Arabidopsis thaliana)
Method: DHFR PCA, deep sequencing
Medium: yeast
Setting: methotrexate growth selection, single substitutions
Together with: (+)-ABA 0.11 µM
Baseline: wild-type fitted maximum
Reading: higher = stronger binding
Endpoint: relative binding score
Starting sequence: PYL1, truncated, DHFR fusion (Arabidopsis thaliana); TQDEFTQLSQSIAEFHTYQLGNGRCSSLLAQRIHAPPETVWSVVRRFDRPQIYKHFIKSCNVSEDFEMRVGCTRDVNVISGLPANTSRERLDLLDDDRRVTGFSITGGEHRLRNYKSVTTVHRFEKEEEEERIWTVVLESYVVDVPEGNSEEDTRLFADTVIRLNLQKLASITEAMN; partner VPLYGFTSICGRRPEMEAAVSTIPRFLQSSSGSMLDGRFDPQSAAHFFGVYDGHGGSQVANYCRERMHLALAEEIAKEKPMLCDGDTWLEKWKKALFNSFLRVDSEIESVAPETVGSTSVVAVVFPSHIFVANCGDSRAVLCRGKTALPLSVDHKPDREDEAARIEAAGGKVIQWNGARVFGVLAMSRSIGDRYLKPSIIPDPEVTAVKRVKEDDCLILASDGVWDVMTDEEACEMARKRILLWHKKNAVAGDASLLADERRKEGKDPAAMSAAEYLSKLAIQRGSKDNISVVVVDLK
H34E: 40.3%
S59R: 0.831%
T154V: 41.3%
T6I: 37.2%
H34F: 24.2%
L94H: 9.39%
D97F: 2.73%
V43S: -1.86%
R69H: 33.5%
E64S: 34.8%
D159Y: -2.44%
L138H: 1.45%
E147M: 12.2%
E89S: 1.47%
R99I: -1.85%
D92C: 7.54%
E64Y: 3.83%
A158H: 38.3%
V145A: 2.12%
V161I: 75.7%
L28F: 2.83%
S26Y: 7.44%

Excerpt of the above (study 5):
PPVKRRLDTETDH [F9T]: -0.0259
PPVKRRLDSETDH [F9S]: 0.071
PPVKRRLDEETDH [F9E]: 0.799
PPVKRRLDGETDH [F9G]: 0.165
PQVKRRLDFETDH [P2Q]: 5.17
PYVKRRLDFETDH [P2Y]: 3.95
PPVKRRLDHETDH [F9H]: 0.185
PSVKRRLDFETDH [P2S]: 5.37
